Measurements of several laboratories.
Each line is one published result; not all experiments were run side by side. Numbers after ± are the reported error.
Fibroin-modulator-binding protein-1: Fibroin-modulator-binding protein-1 99-193 (Bombyx mori, UniProt Q5FBS0)
UniProt Q99062, sequence (whole entry, looked up): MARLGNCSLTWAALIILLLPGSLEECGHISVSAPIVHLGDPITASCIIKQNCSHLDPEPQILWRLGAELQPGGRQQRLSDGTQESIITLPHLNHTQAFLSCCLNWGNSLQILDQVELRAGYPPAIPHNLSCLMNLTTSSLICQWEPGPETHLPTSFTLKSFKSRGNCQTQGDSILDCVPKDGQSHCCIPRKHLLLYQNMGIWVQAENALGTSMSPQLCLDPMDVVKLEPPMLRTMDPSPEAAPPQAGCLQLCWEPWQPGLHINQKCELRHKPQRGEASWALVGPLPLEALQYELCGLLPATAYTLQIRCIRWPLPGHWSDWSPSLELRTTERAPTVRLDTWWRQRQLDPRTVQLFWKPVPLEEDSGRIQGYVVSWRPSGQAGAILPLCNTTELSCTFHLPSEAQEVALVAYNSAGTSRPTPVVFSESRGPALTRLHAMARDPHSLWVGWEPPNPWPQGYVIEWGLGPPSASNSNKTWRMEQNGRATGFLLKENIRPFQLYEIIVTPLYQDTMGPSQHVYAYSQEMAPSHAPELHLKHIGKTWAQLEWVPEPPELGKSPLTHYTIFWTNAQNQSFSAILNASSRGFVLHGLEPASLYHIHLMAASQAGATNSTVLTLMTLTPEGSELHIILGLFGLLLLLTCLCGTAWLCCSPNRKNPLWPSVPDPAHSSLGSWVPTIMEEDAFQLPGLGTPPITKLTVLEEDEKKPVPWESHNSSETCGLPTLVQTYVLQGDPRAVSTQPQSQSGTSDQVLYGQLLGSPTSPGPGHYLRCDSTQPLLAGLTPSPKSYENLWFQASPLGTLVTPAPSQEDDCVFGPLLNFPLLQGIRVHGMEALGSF
UniProt Q09312, sequence (whole entry, looked up): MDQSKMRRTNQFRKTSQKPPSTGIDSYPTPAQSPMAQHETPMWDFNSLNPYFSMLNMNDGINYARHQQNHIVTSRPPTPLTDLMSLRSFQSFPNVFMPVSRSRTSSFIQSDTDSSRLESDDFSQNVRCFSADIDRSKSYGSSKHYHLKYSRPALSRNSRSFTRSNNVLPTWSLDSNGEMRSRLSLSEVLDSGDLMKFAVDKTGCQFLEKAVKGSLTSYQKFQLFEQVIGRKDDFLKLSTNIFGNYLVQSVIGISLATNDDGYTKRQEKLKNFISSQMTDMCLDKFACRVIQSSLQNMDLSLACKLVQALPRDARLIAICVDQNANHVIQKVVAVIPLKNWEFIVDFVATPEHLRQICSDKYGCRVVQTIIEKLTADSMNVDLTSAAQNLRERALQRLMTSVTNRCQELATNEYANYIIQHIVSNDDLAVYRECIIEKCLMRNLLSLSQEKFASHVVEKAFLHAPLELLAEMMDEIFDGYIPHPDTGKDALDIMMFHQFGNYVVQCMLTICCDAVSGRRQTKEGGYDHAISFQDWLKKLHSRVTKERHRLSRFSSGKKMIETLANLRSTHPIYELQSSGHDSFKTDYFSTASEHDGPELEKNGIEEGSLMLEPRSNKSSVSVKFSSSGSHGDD
UniProt Q7L1T6, sequence (whole entry, looked up): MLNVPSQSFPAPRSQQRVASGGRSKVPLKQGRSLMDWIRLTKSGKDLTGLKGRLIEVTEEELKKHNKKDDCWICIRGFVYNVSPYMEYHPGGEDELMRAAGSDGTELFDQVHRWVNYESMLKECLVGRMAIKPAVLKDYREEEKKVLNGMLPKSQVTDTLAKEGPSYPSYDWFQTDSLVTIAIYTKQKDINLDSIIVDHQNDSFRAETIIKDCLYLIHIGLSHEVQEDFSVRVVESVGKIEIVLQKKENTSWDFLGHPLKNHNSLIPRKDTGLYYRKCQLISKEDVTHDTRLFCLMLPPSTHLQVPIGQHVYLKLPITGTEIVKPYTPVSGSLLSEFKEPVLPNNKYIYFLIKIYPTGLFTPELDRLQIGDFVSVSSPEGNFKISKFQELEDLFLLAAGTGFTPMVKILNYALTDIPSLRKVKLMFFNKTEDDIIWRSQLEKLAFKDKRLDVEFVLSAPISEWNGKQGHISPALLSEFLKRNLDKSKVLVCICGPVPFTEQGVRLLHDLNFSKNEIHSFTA
UniProt P43219, sequence (whole entry, looked up): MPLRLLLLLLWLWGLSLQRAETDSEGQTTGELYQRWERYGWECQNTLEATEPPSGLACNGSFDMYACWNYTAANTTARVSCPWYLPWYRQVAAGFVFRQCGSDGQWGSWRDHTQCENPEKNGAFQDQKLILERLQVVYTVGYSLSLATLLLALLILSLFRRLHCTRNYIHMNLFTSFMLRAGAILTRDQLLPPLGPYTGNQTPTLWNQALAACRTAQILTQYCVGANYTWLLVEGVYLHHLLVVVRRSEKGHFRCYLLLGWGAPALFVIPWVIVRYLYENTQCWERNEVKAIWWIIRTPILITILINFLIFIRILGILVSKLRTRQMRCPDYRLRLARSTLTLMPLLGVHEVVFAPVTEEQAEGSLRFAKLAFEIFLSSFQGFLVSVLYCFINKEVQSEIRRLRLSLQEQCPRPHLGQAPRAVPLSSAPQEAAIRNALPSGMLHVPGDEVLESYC
UniProt Q14980, sequence (whole entry, looked up): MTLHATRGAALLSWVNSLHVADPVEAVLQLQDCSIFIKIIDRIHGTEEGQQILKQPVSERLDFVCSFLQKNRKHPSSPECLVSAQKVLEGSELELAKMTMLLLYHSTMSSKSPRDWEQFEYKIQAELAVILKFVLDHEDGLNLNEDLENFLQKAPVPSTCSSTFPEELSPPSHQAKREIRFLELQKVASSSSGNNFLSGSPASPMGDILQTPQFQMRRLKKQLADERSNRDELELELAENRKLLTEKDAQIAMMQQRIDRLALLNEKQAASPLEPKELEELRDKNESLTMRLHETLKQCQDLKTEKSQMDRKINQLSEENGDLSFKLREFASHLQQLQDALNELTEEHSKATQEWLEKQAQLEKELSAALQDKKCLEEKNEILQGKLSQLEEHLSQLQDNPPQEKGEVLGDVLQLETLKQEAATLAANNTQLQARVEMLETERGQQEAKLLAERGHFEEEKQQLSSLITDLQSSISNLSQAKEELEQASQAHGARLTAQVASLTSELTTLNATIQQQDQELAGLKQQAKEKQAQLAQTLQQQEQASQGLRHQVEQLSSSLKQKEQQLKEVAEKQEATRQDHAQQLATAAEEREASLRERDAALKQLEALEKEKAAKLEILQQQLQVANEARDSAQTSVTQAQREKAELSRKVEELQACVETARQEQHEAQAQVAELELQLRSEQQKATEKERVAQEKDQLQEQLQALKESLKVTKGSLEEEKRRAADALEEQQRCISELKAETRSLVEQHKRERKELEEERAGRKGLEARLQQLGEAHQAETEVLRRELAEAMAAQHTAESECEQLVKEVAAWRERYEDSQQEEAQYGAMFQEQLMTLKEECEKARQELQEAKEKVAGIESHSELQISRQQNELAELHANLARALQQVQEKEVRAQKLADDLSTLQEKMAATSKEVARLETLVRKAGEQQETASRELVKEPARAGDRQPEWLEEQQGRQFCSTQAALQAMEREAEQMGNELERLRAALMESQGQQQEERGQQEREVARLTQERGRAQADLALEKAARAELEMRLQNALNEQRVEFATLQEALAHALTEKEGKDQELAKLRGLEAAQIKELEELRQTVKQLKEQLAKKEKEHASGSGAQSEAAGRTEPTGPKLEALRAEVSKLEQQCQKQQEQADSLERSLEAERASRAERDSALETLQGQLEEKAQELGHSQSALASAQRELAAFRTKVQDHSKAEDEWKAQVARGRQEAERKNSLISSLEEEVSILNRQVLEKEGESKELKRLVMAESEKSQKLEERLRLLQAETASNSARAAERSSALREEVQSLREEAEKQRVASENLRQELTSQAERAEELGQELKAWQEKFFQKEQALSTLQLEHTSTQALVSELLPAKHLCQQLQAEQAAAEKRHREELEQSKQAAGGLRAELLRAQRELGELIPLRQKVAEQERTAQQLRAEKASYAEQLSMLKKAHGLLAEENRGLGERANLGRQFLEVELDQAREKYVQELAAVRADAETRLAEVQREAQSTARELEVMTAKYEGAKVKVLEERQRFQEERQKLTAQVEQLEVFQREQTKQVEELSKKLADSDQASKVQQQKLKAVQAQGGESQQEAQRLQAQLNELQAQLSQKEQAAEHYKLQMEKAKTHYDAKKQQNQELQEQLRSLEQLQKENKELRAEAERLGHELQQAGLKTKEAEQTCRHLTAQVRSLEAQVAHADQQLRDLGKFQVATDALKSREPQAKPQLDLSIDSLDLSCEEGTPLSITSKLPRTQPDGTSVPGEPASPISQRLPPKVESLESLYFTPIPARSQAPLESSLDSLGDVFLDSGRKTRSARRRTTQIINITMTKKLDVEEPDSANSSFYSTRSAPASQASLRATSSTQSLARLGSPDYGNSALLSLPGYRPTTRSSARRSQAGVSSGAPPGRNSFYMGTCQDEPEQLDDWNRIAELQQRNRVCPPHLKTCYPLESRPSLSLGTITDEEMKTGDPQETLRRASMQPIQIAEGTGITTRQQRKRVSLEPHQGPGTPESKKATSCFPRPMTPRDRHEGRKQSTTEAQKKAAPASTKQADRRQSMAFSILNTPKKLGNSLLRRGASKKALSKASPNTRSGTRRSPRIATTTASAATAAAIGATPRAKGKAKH
UniProt Q14254, sequence (whole entry, looked up): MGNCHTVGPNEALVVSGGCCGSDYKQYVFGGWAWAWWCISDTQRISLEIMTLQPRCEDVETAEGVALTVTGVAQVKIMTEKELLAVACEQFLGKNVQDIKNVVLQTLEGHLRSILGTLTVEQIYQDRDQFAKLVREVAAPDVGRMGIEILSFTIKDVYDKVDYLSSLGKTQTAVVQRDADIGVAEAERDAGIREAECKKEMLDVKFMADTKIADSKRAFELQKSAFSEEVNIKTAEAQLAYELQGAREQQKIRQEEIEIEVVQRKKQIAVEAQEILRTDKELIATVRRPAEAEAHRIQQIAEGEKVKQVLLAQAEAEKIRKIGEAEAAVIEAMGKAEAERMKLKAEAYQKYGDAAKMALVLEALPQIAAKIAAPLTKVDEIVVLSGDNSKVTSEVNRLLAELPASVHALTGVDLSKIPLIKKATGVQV

QARS1 (Homo sapiens, UniProt P47897) — cross-linked residues (FLOT2 (Homo sapiens, UniProt Q14254); cross-linking MS; cells; added: iqPIR): K366 to K421
LMPFGSLLDYV — binding score (HLA class I histocompatibility antigen, A alpha chain, allele A*02:01 (Homo sapiens, UniProt P04439); conformational ELISA; peptide; concentration not given; relative to: positive control peptide, direction not given): 63.2%
YLFEWVPRL — reporter activation (Jurkat T cells expressing 1G4 TCR; NFAT-eGFP reporter, flow cytometry; peptide; concentration not given, HLA-A*02:01 NY-ESO system): 0.15%
FGA (Homo sapiens, UniProt P02671) — cross-linked residues (AFAP1L1 (Homo sapiens, UniProt Q8TED9); cross-linking MS; added: DSSO): K437 to K761
NGVTKTIAEPRARVEKDYGK (gld-3 860-879 L867A (Caenorhabditis elegans, UniProt Q95ZK7); sequence looked up) — IC50 ratio (fbf-2 164-575 (Caenorhabditis elegans, UniProt Q09312); fluorescence polarisation; peptide; relative to: wild-type GLD-3, higher = weaker competition): > 60 fold
filgrastim (Homo sapiens, UniProt P09919-2) — EC50 (CSF3R (Homo sapiens, UniProt Q99062); STAT3-driven luciferase reporter induction, agonist; 293-CSF3R): 0.25 ng/mL
AACCAACCAACC (dsDNA) — Kd (Fibroin-modulator-binding protein-1; ITC; double-stranded DNA, one strand shown): 3.06 ± 0.458 µM
PKMYT1 (Homo sapiens, UniProt Q99640) — relative binding (CCNE1 low molecular weight form (Homo sapiens); affinity purification mass spectrometry; HEK293T; relative to: FL-cycE, higher = more binding): 5.8 fold
CYB5R4 (Homo sapiens, UniProt Q7L1T6) — time (CYGB R84E (Homo sapiens, UniProt Q8WWM9); NO dioxygenation; 750 nM, 37 °C, R84E, added: NADH 200 µM): > 200 s
PSPHGTRRHLPSPP (SOS1 proline-rich peptide, 1264-1277) — chemical shift perturbation (GRB2 156-215 (Homo sapiens, UniProt P62993); NMR titration; peptide): 0.05 ppm
FGG (Homo sapiens, UniProt P02679) — cross-linked residues (HARS2 (Homo sapiens, UniProt P49590); cross-linking MS; added: DSSO): K231 to K248
GSGAGICTIV — binding intensity (human MAGI1-2/6 PDZ construct (MBP fusion); automated holdup; peptide, crude extract; concentration not given, uncorrected, unit not given; relative to: biotin control resin, higher = stronger binding): 0.136
GCTAGCTAGCTA (dsDNA) — Kd (Fibroin-modulator-binding protein-1; ITC; double-stranded DNA, one strand shown): 5.46 ± 0.561 µM
DYNC1H1 (Homo sapiens, UniProt Q14204) — cortical dynein loss half-time (NUMA1 1-705 (Homo sapiens, UniProt Q14980); time-lapse imaging; Flp-In T-REx mitotic; MG132 pre-incubation, added: RO3306): 8.6 min
GLP-1/MC4 receptor agonist chimeric peptide, D-Ser position 2 — EC50 (Gipr (Rattus norvegicus, UniProt P43219); cAMP, agonist; HEK293; FRET biosensor, stably transfected): 0.319 µM
GRM6 (Homo sapiens, UniProt O15303) — cross-linked residues (FGA (Homo sapiens, UniProt P02671); cross-linking MS; added: DSSO): K859 to K476
DYNLRB1/DYNLL1/DYNLT1/DYNC1LI2/DYNC1I2/DYNC1H1 dynein-1 complex (Homo sapiens) — Ka (NINL/HOOK3 chimera NINL CC, Hook3 LIC-BD, HaloTag; pull-down): > 1.6e+06 M⁻¹

Some of these lines once more:
NGVTKTIAEPRARVEKDYGK (gld-3 860-879 L867A (Caenorhabditis elegans, UniProt Q95ZK7); sequence looked up) — IC50 ratio (fbf-2 164-575 (Caenorhabditis elegans, UniProt Q09312); fluorescence polarisation; peptide; relative to: wild-type GLD-3, higher = weaker competition): > 60 fold
filgrastim (Homo sapiens, UniProt P09919-2) — EC50 (CSF3R (Homo sapiens, UniProt Q99062); STAT3-driven luciferase reporter induction, agonist; 293-CSF3R): 0.25 ng/mL
